Measured values gathered from unrelated publications.
Each line is one published result; not all experiments were run side by side. Numbers after ± are the reported error.

Compound	technique	medium	concentration	pH	temperature	notes	logD
Oc1ccc(Cl)c2cccnc12	miniaturised shake-flask	1-octanol/water	–	–	–	–	2.8
O=C1CCC(c2ccc(OCC(=O)OCCCCc3cn(CCCCCCN4CCc5c(c6ccccc6n5Cc5ccc(C(=O)NO)cc5)C4)nn3)cc2)C(=O)N1 (stereo not drawn)	HPLC-based method	–	–	pH 7.4	–	–	2.2
CC(CCc1ccccc1)NCC(O)c1ccc(O)c(C(N)=O)c1 (stereo not drawn)	miniaturised shake-flask	1-octanol/water	–	–	–	–	1.2
COc1cc2[nH]c(C)c(-c3ccncc3)c(=O)c2cc1Cl	chromatographic	–	–	pH 7.4	–	–	1.8
COc1ccc(C(=O)CSc2nnc(-c3ccc(OC)c(OC)c3)n2-c2ccccc2)cc1	–	octanol/buffer	–	pH 7.4	–	–	3.72
c1ccc(-c2ccc([C@H]3COC[C@@H](c4ccc(-n5cncn5)cc4)N3)cc2)cc1	shake-flask, 1-octanol/buffer	–	–	pH 7.4	–	–	> 4.7
O=C(Nc1cc(C2CCCCC2)[nH]n1)c1ccc(Br)cc1	–	octanol/buffer	67 µM	pH 7.4	–	–	5.09
CC(C)(C)c1ccc([C@H]2COC[C@H](c3ccc(C#N)cc3)N2)cc1	shake-flask, 1-octanol/buffer	–	–	pH 7.4	–	–	> 4.7
c1cc(-c2ccc3ncnc(Nc4ncco4)c3c2)cc(N2CC3(COC3)C2)c1	shake flask	1-octanol/phosphate buffer	–	pH 7.4	–	–	> 4
Cc1ccc(Oc2ccc(NC(=O)CN(C)c3ccccc3N3CCCC3=O)cc2)cc1	shake-flask	–	–	–	–	–	4.6
Clc1ccc(Nc2ncnc3ccc(-c4cccc(N5CCOCC5)c4)cc23)cc1	shake flask	1-octanol/phosphate buffer	–	pH 7.4	–	–	> 4.6
COc1cccc(OC)c1CNC(=O)c1ccc2c(c1)C(=NNc1ccc(S(N)(=O)=O)cc1)C(=O)N2	–	octanol/buffer	67 µM	pH 7.4	–	–	3.21
COc1cc2[nH]c(C)c(-c3cccc(CO)c3)c(=O)c2cc1Cl	chromatographic	–	–	pH 7.4	–	–	3.5
COC(=O)/C=C\C(=O)NNC(=O)CCc1ccccc1C(=O)N[C@H](C)c1cccc2ccccc12	–	–	–	–	–	–	3
COc1cc2[nH]c(C)c(-c3ccc(C(C)=O)cc3)c(=O)c2cc1Cl	chromatographic	–	–	pH 7.4	–	–	2.3
CCOC(=O)N1C[C@@H](c2ccc(C(F)(F)F)cc2)N[C@@H](C(CC)CC)C1	shake-flask, 1-octanol/buffer	–	–	pH 7.4	–	–	> 4.7
CN1C(C(=O)Nc2cccc(F)n2)=C(O)c2ccccc2S1(=O)=O	miniaturised shake-flask	1-octanol/water	–	–	–	–	-0.6
O=C(NO)[C@H]1COC(c2ccc(OC(F)(F)F)c(Cl)c2)=N1	–	octanol/buffer	–	pH 7.4	–	–	2.57
CCOC(=O)N1C[C@@H](c2sc(N(C)C)nc2C)N[C@@H](c2cc3ccccc3cc2OC)C1	shake-flask, 1-octanol/buffer	–	–	pH 7.4	–	–	> 4.7
CN1C(C(=O)Nc2ccccn2)=C(O)c2ccccc2S1(=O)=O	miniaturised shake-flask	1-octanol/water	–	–	–	–	0.5
COc1ccc([C@H]2COC[C@H](c3ccc(C(C)(C)C)cc3)N2)cc1	shake-flask, 1-octanol/buffer	–	–	pH 7.4	–	–	> 4.7
COc1cc2[nH]c(C)c(-c3ccccc3CO)c(=O)c2cc1Cl	chromatographic	–	–	pH 7.4	–	–	1.8
CCCc1nc2c(C)cc(-c3nc4ccccc4n3C)cc2n1Cc1ccc(-c2ccccc2C(=O)O)cc1	miniaturised shake-flask	1-octanol/water	–	–	–	–	2.7
Clc1ccc([C@@H]2COC[C@H](c3ccc(-c4ccccn4)cc3)N2)cc1	shake-flask, 1-octanol/buffer	–	–	pH 7.4	–	–	> 4.4
CCCCc1nc2c(N)nc3ccccc3c2n1Cc1ccc(N)cc1	shake-flask LC-MS/MS	octanol/PBS	–	pH 7.4	room temperature	–	2.61
CC[N+]1(C)CCN(c2ccc(C(=O)Nc3cccc(C)n3)cc2)CC1	–	–	–	pH 7.4	–	–	-0.7

Compound	technique	medium	concentration	pH	temperature	notes	logD
O=C(O)c1cc(-c2ccc(-n3ccnn3)cc2)c2ccc(-c3ccc(C(F)(F)F)cc3)cc2c1	HPLC retention	–	–	pH 7.4	–	chromatographic logD	0.6
COc1cc(OC)c(NC(=O)CSc2nnc(-c3ccncc3)n2-c2ccccc2)cc1Cl	–	octanol/buffer	–	pH 7.4	–	–	3.17
COc1ccccc1CNC(=O)c1cc(S(=O)(=O)N2CCn3nccc3C2)c(C)n1C	–	–	–	–	–	–	1.81
O=C(O)CNC(=O)c1nc(Cl)c2ccccc2c1O	miniaturised shake-flask	1-octanol/water	–	–	–	–	0.7
C[C@@H](NC(=O)c1ccccc1CCC(=O)NNC(=O)/C=C/C(=O)OC1CCCCC1)c1cccc2ccccc12	–	–	–	–	–	–	4.8
O=C(NO)[C@H]1CSC(c2ccc(OC(F)(F)F)c(Cl)c2)=N1	–	octanol/buffer	–	pH 7.4	–	–	3.15
Fc1ccc(N2CCNCC2COc2ccc3ccccc3c2)cc1 (stereo not drawn)	experimental partition	–	–	pH 7.4	–	–	3.46 ± 0.05
O=C(O)c1cc(-c2ccc(-n3ccnn3)cc2)cc(-n2cc(-c3ccc(C(F)(F)F)cc3)nn2)c1	HPLC retention	–	–	pH 7.4	–	–	0.04
CCc1ccccc1-c1c(C)[nH]c2cc(OC)c(Cl)cc2c1=O	chromatographic	–	–	pH 7.4	–	–	2.9
CCN(c1ccc(C)cc1)c1ccc(NC(=O)CN(C)c2ccccc2N2CCCC2=O)cn1	shake-flask	–	–	–	–	–	4.4
Cc1ccc([C@H]2N[C@@H](c3ccc(Cl)c(Cl)c3)CO[C@@H]2C)cc1	shake-flask, 1-octanol/buffer	–	–	pH 7.4	–	–	> 4.7
COC(=O)/C=C/C(=O)NNC(=O)CCc1ccccc1C(=O)N[C@H](C)c1cccc(C2=CCOCC2)c1	–	–	–	–	–	–	2.4
Clc1ccc(Nc2ncnc3ccc(-c4cccc(N5CCOCC5)c4)cc23)cc1Cl	shake flask	1-octanol/phosphate buffer	–	pH 7.4	–	–	> 4.2
CCOC(=O)N1C[C@@H](C2CCCC2)N[C@@H](c2cc(Cl)cc(Cl)c2)C1	shake-flask, 1-octanol/buffer	–	–	pH 7.4	–	–	> 4.7
CN(CC(=O)Nc1ccc(N(C)c2ccc(Cl)c(F)c2)cc1)c1ccccc1N1CCCC1=O	shake-flask	–	–	–	–	–	5.7
COc1cc2[nH]c(C)c(-c3ccoc3)c(=O)c2cc1Cl	chromatographic	–	–	pH 7.4	–	–	2
C=CCn1c(=O)c2cnc(Nc3ccc(N4CCN(C)CC4)cc3)nc2n1-c1ccc2c(n1)[C@@](O)(CC)CC2	–	–	–	pH 7.4	–	–	2.4
COc1cc2[nH]c(C)c(-c3ccc(OC(C)C)cc3)c(=O)c2cc1Cl	chromatographic	–	–	pH 7.4	–	–	3.3
CCn1c(SCC(=O)Nc2ccccc2OC)nnc1-c1c[nH]c2ccccc12	–	octanol/buffer	–	pH 7.4	–	–	3.43
CN(c1ccc(F)cc1)c1c(-c2ccc(F)cn2)nc2ccccn12	–	–	–	pH 7.4	–	–	2.9
COc1cc2[nH]c(C)c(-c3cc(C(F)(F)F)cc(C(F)(F)F)c3)c(=O)c2cc1Cl	chromatographic	–	–	pH 7.4	–	–	4
COC(=O)/C=C/C(=O)NNC(=O)CCc1ccccc1C(=O)N[C@H](C)c1cccc(-c2cncnc2)c1	–	–	–	–	–	–	1.8
COC(=O)c1ccc(NC(=O)CSc2nnnn2-c2ccccc2OC)cc1	–	octanol/buffer	–	pH 7.4	–	–	3.55
COc1ccc(COC(=O)/C=C/C(=O)NNC(=O)CCc2ccccc2C(=O)N[C@H](C)c2cccc3ccccc23)cc1OC	–	–	–	–	–	–	4.5
COc1ccc(Cl)cc1-c1cc(=O)[nH]c(=S)n1CC(N)=O	–	–	–	–	–	–	0.8

For quick reference, copied from above:
Compound	technique	medium	concentration	pH	temperature	notes	logD
CN(CC(=O)Nc1ccc(N(C)c2ccc(Cl)c(F)c2)cc1)c1ccccc1N1CCCC1=O	shake-flask	–	–	–	–	–	5.7
Cc1ccc([C@H]2N[C@@H](c3ccc(Cl)c(Cl)c3)CO[C@@H]2C)cc1	shake-flask, 1-octanol/buffer	–	–	pH 7.4	–	–	> 4.7
COc1cc2[nH]c(C)c(-c3ccncc3)c(=O)c2cc1Cl	chromatographic	–	–	pH 7.4	–	–	1.8
COC(=O)c1ccc(NC(=O)CSc2nnnn2-c2ccccc2OC)cc1	–	octanol/buffer	–	pH 7.4	–	–	3.55
C[C@@H](NC(=O)c1ccccc1CCC(=O)NNC(=O)/C=C/C(=O)OC1CCCCC1)c1cccc2ccccc12	–	–	–	–	–	–	4.8
COc1cc2[nH]c(C)c(-c3ccccc3CO)c(=O)c2cc1Cl	chromatographic	–	–	pH 7.4	–	–	1.8
O=C(O)c1cc(-c2ccc(-n3ccnn3)cc2)cc(-n2cc(-c3ccc(C(F)(F)F)cc3)nn2)c1	HPLC retention	–	–	pH 7.4	–	–	0.04
